Measured values gathered from unrelated publications.
Each line is one published result; not all experiments were run side by side. ± marks the error that the study gave.

CC(C)C(=O)OCC(=O)[C@@]12O[C@H](C3CCCCC3)O[C@@H]1C[C@H]1[C@@H]3CCC4=CC(=O)C=C[C@]4(C)[C@H]3[C@@H](O)C[C@@]12C  Cmax (children with asthma, serum; inhalation without spacer, 160 µg, day 7, steady state): 0.117 ± 0.019 ng/mL
CN1CCN(c2ccc3nc(-c4c(N)c5c(F)cccc5[nH]c4=O)[nH]c3c2)CC1  Cmax (patients, plasma; oral, 300 mg, day 1, median concurrent dosing, added: gemcitabine and capecitabine): 181 ng/mL
C[C@@H](O)[C@H]1C(=O)N2C(C(=O)O)=C(S[C@@H]3CN[C@H](C(=O)N(C)C)C3)[C@H](C)[C@H]12  Cmax (microdialysis; pig (Danish Landrace), cortical bone; iv infusion, 1000 mg over 10 min, added: vancomycin co-administered): 3000 ng/mL
CC(C)=CCC[C@](C)(O[C@@H]1O[C@H](CO)[C@@H](O)[C@H](O)[C@H]1O)[C@H]1CC[C@]2(C)[C@@H]1[C@H](O)C[C@@H]1[C@@]3(C)CC[C@H](O[C@@H]4O[C@H](CO)[C@@H](O)[C@H](O)[C@H]4O)C(C)(C)[C@@H]3CC[C@]12C  Cmax (LC-MS/MS; healthy male volunteers, serum; oral, 3 g red ginseng): 0.57 ± 0.22 ng/mL
N[C@]1(C(=O)O)[C@H]2[C@@H](C[C@@H]1F)[C@@H]2C(=O)O  Cmax (healthy subjects, both sexes, CSF; oral, 10 mg TS-134 single dose, fed, mean): 1.24 ng/mL
CC1=C2C[C@H]3[C@@H](CC[C@@H]4C[C@H](NS(C)(=O)=O)CC[C@@]43C)[C@@H]2CC[C@@]2(C1)O[C@@H]1C[C@H](C)CN[C@H]1[C@H]2C  Cmax (patients, plasma; oral, 130 mg daily, day 22, cycle 1): 336 ng/mL
Cn1cnc2c(F)c(Nc3ccc(Br)cc3Cl)c(C(=O)NOCCO)cc21  Cmax (ESRD on hemodialysis, plasma; oral, 50 mg single dose, dosed 1 h before dialysis): 507 ng/mL
Cc1ccc(NC(=O)c2ccc(CN3CCN(C)CC3)cc2)cc1Nc1nccc(-c2cncc(-c3oncc3C)c2)n1  Cmax (Parkinson's disease patients, plasma; oral, 100 mg once daily, day 1, 7-day dosing, mean): 4160 ng/mL
Nc1nc(NC2CC2)c2ncn([C@H]3C=C[C@@H](CO)C3)c2n1  Cmax (HIV-infected children and adolescents, Tanner stage 1-2, plasma; oral, 8 mg/kg): 3500 ng/mL
O=C(C1CCCCC1)N1CC(=O)N2CCc3ccccc3[C@H]2C1  Cmax (healthy men, plasma; oral, 40 mg/kg racemic praziquantel, geometric mean, added: ritonavir 100 mg/day for 14 days): 2340 ng/mL
CC(C)=CCC[C@](C)(O[C@@H]1O[C@H](CO)[C@@H](O)[C@H](O)[C@H]1O)[C@H]1CC[C@]2(C)[C@@H]1[C@H](O)C[C@@H]1[C@@]3(C)CC[C@H](O[C@@H]4O[C@H](CO)[C@@H](O)[C@H](O)[C@H]4O[C@@H]4O[C@H](CO)[C@@H](O)[C@H](O)[C@H]4O)C(C)(C)[C@@H]3CC[C@]12C  Cmax (LC-MS/MS; healthy female volunteers, serum; oral, 3 g fermented red ginseng): 14.5 ± 8.18 ng/mL
C[C@@H]1O[C@@H](OC[C@H]2O[C@@H](Oc3c(-c4ccc(O)c(O)c4)oc4cc(O)cc(O)c4c3=O)[C@H](O)[C@@H](O)[C@@H]2O)[C@H](O)[C@H](O)[C@H]1O  Cmax (healthy volunteers, urine; oral, dose not given, pharmaceutical preparations): 780 ± 10.4 ng/mL
COc1cc2c(cc1Cc1cccc(Cl)c1F)c(=O)c(C(=O)O)cn2[C@H](CO)C(C)C  Cmax (rhesus macaque, plasma; oral, 30 mg/kg, added: FTC 20 mg/kg, TAF, cobicistat 30 mg/kg): 1100 ng/mL
CCOc1ccc(Cc2cc([C@@H]3S[C@H](CO)[C@@H](O)[C@H](O)[C@H]3O)c(OC)cc2C)cc1  Cmax (Japanese type 2 diabetes patients, plasma; oral, 5 mg single dose, eGFR below 30 mL/min/1.73 m^2): 195 ± 63.1 ng/mL
CS(=O)(=O)n1cc2c(n1)CN([C@H]1CO[C@H](c3cc(F)ccc3F)[C@@H](N)C1)C2  Cmax (healthy Japanese men, plasma; oral, 50 mg once weekly, day 15): 1310 nM
Cc1ccnc2c1NC(=O)c1cccnc1N2C1CC1  Cmax (olive baboon (Papio anubis), female, non-pregnant, serum; oral, 5 mg/kg, solution, single dose): 192 ± 61.5 ng/mL
C[C@@H](N)c1cc(Cl)ccc1Cn1c(=S)[nH]c(=O)c2[nH]ccc21  Cmax (healthy Japanese volunteers, plasma; oral, 10 mg once daily, day 1, geometric mean): 43.8 nM
CO/N=C1\C[C@]2(C[C@@H]3C[C@@H](C/C=C(\C)C[C@@H](C)/C=C/C=C4\CO[C@@H]5[C@H](O)C(C)=C[C@@H](C(=O)O3)[C@]45O)O2)O[C@H](/C(C)=C/C(C)C)[C@H]1C  Cmax (parasitized Corriedale lambs, plasma; oral, 0.2 mg/kg): 13.1 ± 2.53 ng/mL
C[C@H]1CN(C(=O)CC#N)[C@]12CCN(c1ncnc3[nH]ccc13)C2  Cmax (human, plasma; topical, 5 g of 3% ointment): 7.42 ng/mL
CC(C)c1nc(CN(C)C(=O)N[C@H](C(=O)N[C@@H](Cc2ccccc2)C[C@H](O)[C@H](Cc2ccccc2)NC(=O)OCc2cncs2)C(C)C)cs1  Cmax (human, plasma; oral, 100 mg twice daily, day 14, added: saquinavir 1000 mg twice daily): 1270 ng/mL
C[C@]12C=CC(=O)C=C1CC[C@@H]1[C@@H]2[C@@H](O)C[C@@]2(C)[C@H]1C[C@H]1O[C@@H](C3CCCCC3)O[C@]12C(=O)CO  Cmax (children with asthma, serum; inhaled, 160 µg ciclesonide, day 7, geometric LS mean, per-protocol, no spacer): 0.123 ng/mL
Cc1ccc(Sc2ccccc2N2CCNCC2)c(C)c1  Cmax (healthy men, plasma; oral, 20 mg once daily, fed, day 1): 6.5 ng/mL
Nc1ncc(-c2cnn(CCO)c2)c2scc(-c3ccc(NC(=O)Nc4cccc(F)c4)cc3)c12  Cmax (patient, plasma; oral, 320 mg twice weekly, day 15, trial): 1760 ± 790 ng/mL
O=C(N[C@H]1CCN(CC2CC2)C[C@@H]1C(=O)NC1(c2ncccn2)CC1)c1cc(-c2ccc(F)cc2F)on1  Cmax (healthy male subjects; oral, 10 mg, fed, geometric mean, added: itraconazole 200 mg multiple doses): 55.3 ng/mL
Cc1cc(Nc2cc3ncccc3c(N[C@@H]3C[C@H]4CC[C@@H](C3)N4CCC#N)n2)n[nH]1  Cmax (pregnant rabbit, maternal plasma; oral, 10 mg/kg/day, gestation day 19): 11.4 ng/mL
O=C1Nc2c(C(=O)O)ccnc2N(C2CC2)c2ncccc21  Cmax (olive baboon (Papio anubis), non-pregnant, serum; oral, 800 mg nevirapine, tablet): 321 ± 263 ng/mL
O=C(c1cc(Cc2n[nH]c(=O)c3ccccc23)ccc1F)N1CCN(C(=O)C2CC2)CC1  Cmax (cancer patients; oral, 100 mg twice daily, day 1): 1700 ± 800 ng/mL
CC(=O)Nc1ccc(O[C@@H]2O[C@H](C(=O)O)[C@@H](O)[C@H](O)[C@H]2O)cc1  Cmax (healthy volunteers, both sexes, plasma; oral, 650 mg acetaminophen, day 1): 13600 ng/mL
CO[C@H]1C[C@@H]2CC[C@@H](C)[C@@](O)(O2)C(=O)C(=O)N2CCCC[C@H]2C(=O)O[C@H]([C@H](C)C[C@@H]2CC[C@@H](OP(C)(C)=O)[C@H](OC)C2)CC(=O)[C@H](C)/C=C(\C)[C@@H](O)[C@@H](OC)C(=O)[C@H](C)C[C@H](C)/C=C/C=C/C=C/1C  Cmax (HPLC-MS/MS; Japanese patients, whole blood; oral, 20 mg, day 1, cycle 1, geometric mean): 113 ng/mL
Cc1c(Cl)c(C)[n+]([O-])c(Cl)c1-c1noc(-c2cc(O)c(O)c([N+](=O)[O-])c2)n1  Cmax (Parkinson's disease patients, plasma; oral, 50 mg, day 14, steady state, once daily): 459 ± 252 ng/mL
CC(C)(Sc1ccncc1-c1ccc(C#N)c2ccccc12)C(=O)O  Cmax (Japanese male subjects, plasma; oral, 10 mg, single dose, fed, geometric least squares mean): 21.9 ng/mL
C=C(C)[C@@H]1CC[C@]2(NCCN3CCS(=O)(=O)CC3)CC[C@]3(C)[C@H](CC[C@@H]4[C@@]5(C)CC=C(C6=CC[C@@](CF)(C(=O)O)CC6)C(C)(C)[C@@H]5CC[C@]43C)[C@@H]12  Cmax (HIV-1-positive treatment-naive adults, plasma; oral, 80 mg single dose, day 1, with food): 430 ng/mL
Cc1nc(-c2ccc(OCC(C)C)c(C#N)c2)sc1C(=O)O  Cmax (healthy Chinese adult volunteers, plasma; oral, 20 mg single dose, fed): 856 ± 254 ng/mL
CNC(=O)c1cc(Oc2ccc(NC(=O)Nc3ccc(Cl)c(C(F)(F)F)c3)c(F)c2)ccn1  Cmax (metastatic colorectal cancer patients, plasma; oral, dose not given, added: esomeprazole 40 mg 3 h before): 4700 ng/mL
COc1ccc2c3c1O[C@H]1C[C@@H](OC(=O)c4ccccc4)C=C[C@@]31CCN(C)C2  Cmax (healthy young men, plasma; intranasal, 5.5 mg, single dose): 15.2 ng/mL
COc1cc(OC)c(/C=C/S(=O)(=O)Cc2ccc(OC)c(NCC(=O)O)c2)c(OC)c1  Cmax (cancer patients, phase I, plasma; oral, 140 mg twice daily, day 21 cycle 1): 430 ± 260 ng/mL
CC(C)(Sc1ccncc1-c1ccc(C#N)c2ccccc12)C(=O)O  Cmax (male, plasma; oral, 15 mg, severe renal impairment, fasted): 38.2 ng/mL
COc1cc2c3c(n(CCCN4CCOCC4)c(=O)c2cc1OC)-c1cc2c(cc1C3=O)OCO2  Cmax (patients, plasma; intravenous infusion, 40 mg/m^2 daily over 1 h, cycle 1 day 5): 1130 ng/mL
N[C@@H](CC(=O)N1CCn2c(nnc2C(F)(F)F)C1)Cc1cc(F)c(F)cc1F  Cmax (healthy Korean subjects, plasma; oral, 100 mg single dose, ABCB1 G2677T/A TA): 443 ± 96.6 ng/mL
CCC[C@H](N[C@@H](C)C(=O)N1[C@H](C(=O)O)C[C@@H]2CCCC[C@@H]21)C(=O)OCC  Cmax (healthy Chinese volunteers, whole blood; oral, 4 mg, fasting, added: indapamide 1.25 mg): 30.9 ± 10.3 ng/mL
CCC(CC)O[C@@H]1C=C(C(=O)O)C[C@H](N)[C@H]1NC(C)=O  Cmax (healthy Indian subjects, fed, plasma; oral, 75 mg oseltamivir phosphate, test capsule formulation): 241 ± 64 ng/mL
CCOc1ccc2cc(-c3nn(CC4CCN(C)CC4)c4ncnc(N)c34)ccc2c1  Cmax (LC-MS/MS; Neospora caninum-infected pregnant sheep, plasma; oral, 100 mg/kg, after dose 4): 2700 ± 900 nM
CC(C)(Sc1ccncc1-c1ccc(C#N)c2ccccc12)C(=O)O  Cmax (healthy men, plasma; oral, 2.5 mg once daily, day 14, geometric mean, added: febuxostat 80 mg): 4.78 ng/mL
CCCC[C@H](NC(C)=O)C(=O)N[C@H]1CCC(=O)NC[C@@H](C(=O)N[C@@H](Cc2c[nH]c3ccccc23)C(N)=O)NC(=O)[C@H](CCCNC(=N)N)NC(=O)[C@@H](Cc2ccccc2)NC(=O)[C@H](Cc2c[nH]cn2)NC1=O  Cmax (healthy volunteers, plasma; subcutaneous, 1.0 mg once daily, day 7, steady state median): 22.2 ng/mL
COc1cccc(N2CCN(C3=Nc4c(F)cccc4[C@H](CC(=O)O)N3c3cc(C(F)(F)F)ccc3OC)CC2)c1  Cmax (UHPLC-MS/MS; healthy women, plasma; intravenous infusion, 720 mg single dose, 60 min infusion, HPβCD formulation): 39100 ± 3060 ng/mL
NC(=O)c1cnc2[nH]ccc2c1N[C@@H]1[C@@H]2CC3C[C@H]1C[C@@](O)(C3)C2  Cmax (healthy Caucasian men, plasma; oral, 20 mg, single dose fasted): 48.9 ng/mL
COc1c(OCCCN2CCOCC2)ccc2c1N=C(NC(=O)c1cnc(N)nc1)N1CCN=C21  Cmax (LC-MS/MS; patients with solid tumours, expansion cohort, plasma; intravenous, 0.8 mg/kg, cycle 1 day 15, geometric mean): 477 ng/mL

For quick reference, copied from above:
CCOc1ccc2cc(-c3nn(CC4CCN(C)CC4)c4ncnc(N)c34)ccc2c1  Cmax (LC-MS/MS; Neospora caninum-infected pregnant sheep, plasma; oral, 100 mg/kg, after dose 4): 2700 ± 900 nM
Cc1ccc(Sc2ccccc2N2CCNCC2)c(C)c1  Cmax (healthy men, plasma; oral, 20 mg once daily, fed, day 1): 6.5 ng/mL
COc1cc(OC)c(/C=C/S(=O)(=O)Cc2ccc(OC)c(NCC(=O)O)c2)c(OC)c1  Cmax (cancer patients, phase I, plasma; oral, 140 mg twice daily, day 21 cycle 1): 430 ± 260 ng/mL
